{"data": "Results pooled from the literature", "target": "5-hydroxytryptamine receptor 2B (HTR2B, Homo sapiens, UniProt P41595)", "note": "Each line is one published result; not all experiments were run side by side. Numbers after ± are the reported error.", "sequence of UniProt P41595 (whole entry, looked up)": "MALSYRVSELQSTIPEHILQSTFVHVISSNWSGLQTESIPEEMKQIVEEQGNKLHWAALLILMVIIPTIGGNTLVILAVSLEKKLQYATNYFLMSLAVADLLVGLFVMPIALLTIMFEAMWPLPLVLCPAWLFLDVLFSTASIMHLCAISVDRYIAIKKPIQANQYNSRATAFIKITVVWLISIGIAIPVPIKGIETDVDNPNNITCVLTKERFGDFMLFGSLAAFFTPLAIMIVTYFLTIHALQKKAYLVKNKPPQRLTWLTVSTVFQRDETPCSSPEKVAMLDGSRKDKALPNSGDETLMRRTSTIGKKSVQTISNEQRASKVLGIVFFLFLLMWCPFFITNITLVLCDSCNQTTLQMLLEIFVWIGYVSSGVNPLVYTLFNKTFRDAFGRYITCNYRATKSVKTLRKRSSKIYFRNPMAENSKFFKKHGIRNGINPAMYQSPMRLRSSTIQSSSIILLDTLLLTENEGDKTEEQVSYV"}
{"SMILES": "Cn1cccc1-c1cccnc1", "test": "binding", "conditions": "50 µM", "endpoint": "inhibition", "result": "0.3%"}
{"SMILES": "O=c1ccc2ccccc2o1", "test": "agonist radioligand binding", "conditions": "10 µM, SafetyScreen44", "endpoint": "inhibition", "result": "-6.21%"}
{"SMILES": "CCN(CC)CCCC[C@H](NC(=O)[C@H](CC(C)C)NC(=O)[C@H](C)NC(=O)[C@H](Cc1ccccc1)NC(=O)c1ccc(C(C)(C)C)cc1)C(=O)N[C@@H](CO)C(=O)OC", "test": "radioligand binding", "conditions": "10 µM", "endpoint": "specific binding", "result": "93%"}
{"SMILES": "O=C(Nc1cccnn1)N1CCN([C@@H]2CCOc3cc(C(F)(F)F)ccc32)CC1", "test": "binding", "conditions": "20 µM", "endpoint": "inhibition", "result": "65%"}
{"SMILES": "CNC(C)Cc1ccc2nsnc2c1 (centres unmarked)", "test": "agonist", "how to read": "baseline: 5-HT", "endpoint": "Emax", "result": "69.4 ± 5.8%"}
{"SMILES": "COc1cc(CCNC(C)c2ccccc2O)c(OC)cc1Br.Cl (centres unmarked)", "test": "Gq dissociation, agonist, BRET", "conditions": "10 µM", "how to read": "baseline: 5-HT response", "endpoint": "efficacy", "result": "< 50%"}
{"SMILES": "COc1cc(Cl)c(C(=O)N[C@@H](CN[C@H]2CC[C@@H](N)CC2)Cc2ccc(C#N)cc2)cc1-c1ccc(CN[C@H](C)c2ccc(C)cc2)o1", "test": "agonist response, antagonist", "system": "human cells", "conditions": "10 µM, 5-HT2B antagonist", "endpoint": "inhibition", "result": "28%"}
{"SMILES": "CN1CCN(c2cc(-c3ccncc3)c(-c3ccc4ccccc4c3)nn2)CC1", "test": "antagonist, FLIPR", "conditions": "10 µM", "endpoint": "inhibition", "result": "21.3%"}
{"SMILES": "COc1cc(CC(C)N)c(OC)cc1I (racemic)", "test": "binding, agonist, radioligand binding", "endpoint": "Hill coefficient", "result": 0.9}
{"SMILES": "C/C=C1/CN2CC[C@]34C(=C(C(=O)OC)[C@H]1C[C@H]23)Nc1ccc(I)cc14", "conditions": "10 µM", "endpoint": "inhibition", "result": "< 50%"}
{"SMILES": "CNC(C)Cc1ccc2nonc2c1 (centres unmarked)", "test": "agonist", "how to read": "baseline: 5-HT", "endpoint": "Emax", "result": "49.4 ± 6.2%"}
{"SMILES": "COc1cc(CCNC(C)c2ccccc2O)c(OC)cc1C#N (single isomer, unassigned; (+))", "test": "Gq dissociation, agonist, BRET", "how to read": "baseline: 5-HT", "endpoint": "Emax", "result": "41%"}
{"SMILES": "Cl.NC[C@H]1C[C@]1(F)c1ccccc1Br", "conditions": "concentration not given", "endpoint": "activity", "result": "inactive"}
{"SMILES": "N#C[C@@]12C[C@@H]1[C@@H](n1cnc3c(NC4CCCC4)nc(I)nc31)[C@H](O)[C@@H]2O", "test": "radioligand binding", "conditions": "together with: [3H]LSD", "how to read": "baseline: 4′-cyano over 4′-CH2OH analogue", "endpoint": "affinity gain", "result": "6.6 fold"}
{"note": "For quick reference, copied from above:"}
{"SMILES": "Cn1cccc1-c1cccnc1", "test": "binding", "conditions": "50 µM", "endpoint": "inhibition", "result": "0.3%"}
